# Experimental data of several laboratories.
# Parts stem from different laboratories: compare values within a part only.
# UniProt P43088, sequence (whole entry, looked up): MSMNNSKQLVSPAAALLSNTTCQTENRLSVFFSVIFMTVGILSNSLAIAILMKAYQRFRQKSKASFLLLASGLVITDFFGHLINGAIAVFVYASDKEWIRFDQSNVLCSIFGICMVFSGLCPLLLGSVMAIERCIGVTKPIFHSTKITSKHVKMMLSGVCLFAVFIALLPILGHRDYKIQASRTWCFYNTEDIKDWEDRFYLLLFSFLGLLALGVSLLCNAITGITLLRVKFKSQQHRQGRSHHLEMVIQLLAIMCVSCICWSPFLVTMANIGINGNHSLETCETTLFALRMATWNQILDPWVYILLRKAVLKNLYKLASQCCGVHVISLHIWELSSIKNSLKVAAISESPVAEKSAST
# UniProt Q9Y5S2, sequence (whole entry, looked up): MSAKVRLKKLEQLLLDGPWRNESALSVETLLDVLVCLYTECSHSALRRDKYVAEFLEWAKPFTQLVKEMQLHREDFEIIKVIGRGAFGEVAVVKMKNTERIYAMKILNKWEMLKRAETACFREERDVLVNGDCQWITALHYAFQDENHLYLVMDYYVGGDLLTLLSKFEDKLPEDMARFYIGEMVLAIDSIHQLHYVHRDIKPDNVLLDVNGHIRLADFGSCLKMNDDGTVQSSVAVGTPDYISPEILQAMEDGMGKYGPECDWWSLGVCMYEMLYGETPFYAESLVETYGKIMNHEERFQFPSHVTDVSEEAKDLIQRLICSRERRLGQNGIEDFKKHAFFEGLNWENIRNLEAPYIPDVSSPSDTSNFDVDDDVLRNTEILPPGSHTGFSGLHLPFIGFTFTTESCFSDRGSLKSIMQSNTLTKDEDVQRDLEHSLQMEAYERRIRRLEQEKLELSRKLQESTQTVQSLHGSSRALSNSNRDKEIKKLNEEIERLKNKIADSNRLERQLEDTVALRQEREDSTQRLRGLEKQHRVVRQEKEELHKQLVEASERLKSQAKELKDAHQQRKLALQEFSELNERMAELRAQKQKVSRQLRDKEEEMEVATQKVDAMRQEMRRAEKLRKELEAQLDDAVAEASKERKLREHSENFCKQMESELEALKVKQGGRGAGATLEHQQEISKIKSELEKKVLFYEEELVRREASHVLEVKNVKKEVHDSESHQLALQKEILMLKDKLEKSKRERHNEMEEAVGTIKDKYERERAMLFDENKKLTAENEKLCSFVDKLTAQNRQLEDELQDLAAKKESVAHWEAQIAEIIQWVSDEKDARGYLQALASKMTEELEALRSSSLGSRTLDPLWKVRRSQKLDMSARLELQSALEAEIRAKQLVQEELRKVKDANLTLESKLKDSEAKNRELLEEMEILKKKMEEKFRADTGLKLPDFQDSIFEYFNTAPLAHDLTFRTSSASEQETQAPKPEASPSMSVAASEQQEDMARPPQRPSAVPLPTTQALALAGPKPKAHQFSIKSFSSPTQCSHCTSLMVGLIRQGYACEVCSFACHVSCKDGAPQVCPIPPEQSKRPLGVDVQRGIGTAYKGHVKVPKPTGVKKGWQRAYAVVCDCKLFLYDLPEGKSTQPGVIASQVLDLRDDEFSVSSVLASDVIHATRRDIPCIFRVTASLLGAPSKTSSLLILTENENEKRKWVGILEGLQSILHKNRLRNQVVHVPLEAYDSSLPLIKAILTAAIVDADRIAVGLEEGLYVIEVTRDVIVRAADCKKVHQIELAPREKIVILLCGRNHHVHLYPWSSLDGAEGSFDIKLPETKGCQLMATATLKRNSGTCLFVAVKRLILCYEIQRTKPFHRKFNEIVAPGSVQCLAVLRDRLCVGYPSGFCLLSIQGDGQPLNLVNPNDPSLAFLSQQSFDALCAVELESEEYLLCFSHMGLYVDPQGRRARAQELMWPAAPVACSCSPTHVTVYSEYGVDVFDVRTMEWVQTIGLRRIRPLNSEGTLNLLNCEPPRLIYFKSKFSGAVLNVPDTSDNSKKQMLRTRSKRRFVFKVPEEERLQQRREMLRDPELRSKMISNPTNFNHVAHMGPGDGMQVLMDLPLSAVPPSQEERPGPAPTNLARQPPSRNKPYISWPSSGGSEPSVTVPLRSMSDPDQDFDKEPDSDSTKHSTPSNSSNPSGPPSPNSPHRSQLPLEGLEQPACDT
# UniProt P08631, sequence (whole entry, looked up): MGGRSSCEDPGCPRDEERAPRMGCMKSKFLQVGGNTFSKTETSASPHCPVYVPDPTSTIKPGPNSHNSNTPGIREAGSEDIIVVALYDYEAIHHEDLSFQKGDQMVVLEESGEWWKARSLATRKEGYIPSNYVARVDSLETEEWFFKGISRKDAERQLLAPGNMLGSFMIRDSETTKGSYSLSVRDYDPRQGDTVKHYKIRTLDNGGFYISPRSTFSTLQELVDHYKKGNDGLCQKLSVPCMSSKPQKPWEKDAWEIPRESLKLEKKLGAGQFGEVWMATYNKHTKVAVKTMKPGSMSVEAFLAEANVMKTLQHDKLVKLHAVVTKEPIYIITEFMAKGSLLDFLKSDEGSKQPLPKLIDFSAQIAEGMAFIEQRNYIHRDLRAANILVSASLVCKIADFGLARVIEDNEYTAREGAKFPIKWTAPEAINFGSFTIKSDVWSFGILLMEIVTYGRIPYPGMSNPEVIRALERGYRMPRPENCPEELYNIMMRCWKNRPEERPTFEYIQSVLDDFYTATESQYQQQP
# UniProt P33032, sequence (whole entry, looked up): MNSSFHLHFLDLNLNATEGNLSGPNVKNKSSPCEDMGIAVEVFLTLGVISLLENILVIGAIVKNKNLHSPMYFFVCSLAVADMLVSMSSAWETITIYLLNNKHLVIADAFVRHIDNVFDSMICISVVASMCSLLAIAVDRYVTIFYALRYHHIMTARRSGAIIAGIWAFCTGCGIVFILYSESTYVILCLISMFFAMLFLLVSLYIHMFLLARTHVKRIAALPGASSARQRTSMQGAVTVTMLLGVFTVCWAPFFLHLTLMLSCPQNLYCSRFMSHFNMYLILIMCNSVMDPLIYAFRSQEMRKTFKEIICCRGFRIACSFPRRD
# UniProt O75716, sequence (whole entry, looked up): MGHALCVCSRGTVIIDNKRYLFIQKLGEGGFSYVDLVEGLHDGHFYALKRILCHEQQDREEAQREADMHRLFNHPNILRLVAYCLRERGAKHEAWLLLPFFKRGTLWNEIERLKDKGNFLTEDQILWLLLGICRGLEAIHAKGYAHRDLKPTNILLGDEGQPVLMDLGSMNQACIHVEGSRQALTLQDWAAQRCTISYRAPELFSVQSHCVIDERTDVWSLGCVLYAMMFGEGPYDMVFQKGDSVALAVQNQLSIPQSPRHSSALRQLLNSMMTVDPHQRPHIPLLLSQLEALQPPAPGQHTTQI
# UniProt Q99683, sequence (whole entry, looked up): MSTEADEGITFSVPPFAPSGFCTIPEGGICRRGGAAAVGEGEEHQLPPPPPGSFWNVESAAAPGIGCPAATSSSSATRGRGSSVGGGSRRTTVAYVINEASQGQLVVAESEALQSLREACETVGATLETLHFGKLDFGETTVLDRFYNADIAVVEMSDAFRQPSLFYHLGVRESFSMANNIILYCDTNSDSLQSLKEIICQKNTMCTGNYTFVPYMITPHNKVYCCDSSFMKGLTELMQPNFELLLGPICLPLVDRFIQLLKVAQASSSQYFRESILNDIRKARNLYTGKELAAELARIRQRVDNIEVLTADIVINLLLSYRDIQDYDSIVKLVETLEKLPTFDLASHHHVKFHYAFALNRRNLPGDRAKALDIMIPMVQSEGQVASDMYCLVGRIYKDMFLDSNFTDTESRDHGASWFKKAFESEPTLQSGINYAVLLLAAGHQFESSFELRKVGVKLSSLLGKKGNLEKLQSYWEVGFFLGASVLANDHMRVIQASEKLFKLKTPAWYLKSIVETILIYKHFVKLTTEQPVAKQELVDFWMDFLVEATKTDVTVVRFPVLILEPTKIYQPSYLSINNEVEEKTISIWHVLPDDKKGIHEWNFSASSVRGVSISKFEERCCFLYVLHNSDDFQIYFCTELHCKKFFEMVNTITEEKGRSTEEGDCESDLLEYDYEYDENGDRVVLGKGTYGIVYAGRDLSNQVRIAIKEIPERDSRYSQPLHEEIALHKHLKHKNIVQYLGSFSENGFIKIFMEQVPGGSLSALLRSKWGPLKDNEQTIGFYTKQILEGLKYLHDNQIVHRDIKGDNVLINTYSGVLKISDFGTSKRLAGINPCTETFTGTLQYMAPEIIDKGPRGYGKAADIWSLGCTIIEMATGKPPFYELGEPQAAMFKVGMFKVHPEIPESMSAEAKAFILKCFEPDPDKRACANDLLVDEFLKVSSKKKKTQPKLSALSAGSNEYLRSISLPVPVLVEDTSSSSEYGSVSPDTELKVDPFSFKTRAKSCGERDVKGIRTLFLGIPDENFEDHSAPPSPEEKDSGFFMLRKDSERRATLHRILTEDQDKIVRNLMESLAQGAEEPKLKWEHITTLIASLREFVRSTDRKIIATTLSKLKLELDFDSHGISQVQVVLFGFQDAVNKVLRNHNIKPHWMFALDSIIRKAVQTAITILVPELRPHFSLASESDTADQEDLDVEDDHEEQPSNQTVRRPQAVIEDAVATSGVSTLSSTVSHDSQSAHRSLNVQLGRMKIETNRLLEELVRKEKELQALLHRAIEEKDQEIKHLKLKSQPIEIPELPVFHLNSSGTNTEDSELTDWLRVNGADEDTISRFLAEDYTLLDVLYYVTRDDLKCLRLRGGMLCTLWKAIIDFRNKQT
# UniProt P30559, sequence (whole entry, looked up): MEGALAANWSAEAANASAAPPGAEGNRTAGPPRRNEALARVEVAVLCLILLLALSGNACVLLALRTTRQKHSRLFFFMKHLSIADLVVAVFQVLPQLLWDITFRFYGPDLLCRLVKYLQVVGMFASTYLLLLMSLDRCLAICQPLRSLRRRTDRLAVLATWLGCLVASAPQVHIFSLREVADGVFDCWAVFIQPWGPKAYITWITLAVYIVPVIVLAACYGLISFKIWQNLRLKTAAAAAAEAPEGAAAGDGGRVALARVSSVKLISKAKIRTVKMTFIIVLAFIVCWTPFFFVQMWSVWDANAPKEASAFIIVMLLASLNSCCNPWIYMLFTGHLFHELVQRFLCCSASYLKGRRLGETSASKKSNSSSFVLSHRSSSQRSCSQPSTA

# Set 1
# SMILES: C[C@H]1CC[C@H](n2c3cnccc3c3cnc(Nc4ccc5c(n4)CCN(C(=O)CO)C5)nc32)CC1
# Read-out: cell-free assay
# Concentration: 1 µM
target,remaining signal [%]
"SRPK1 (Homo sapiens, UniProt Q96SB4)",30
"MAP3K5 (Homo sapiens, UniProt Q99683)",100
"ABL1 (Homo sapiens, UniProt P00519, M351T)",92
"SBK3 (Homo sapiens, UniProt P0C264)",100

# Set 2
# Compound: CS(=O)(=O)NCC[C@H](NC(=O)c1cncc2c1cnn2-c1ccc(F)cc1)c1ccnc(S(C)(=O)=O)c1
# Read-out: cell-free assay
# Method: competition with immobilised ligand
# Concentration: 1 µM
target,remaining binding
"CDK17 (Homo sapiens, UniProt Q00537)",100%
"CDC42BPB (Homo sapiens, UniProt Q9Y5S2)",95%
"STK16 (Homo sapiens, UniProt O75716)",99%
"HCK (Homo sapiens, UniProt P08631)",100%
"EPHA8 (Homo sapiens, UniProt P29322)",100%

# Set 3
# SMILES: N=C(N)NC(=O)c1cnn(-c2cccc3ncccc23)c1C1CC1
# Read-out: β-arrestin recruitment
# Mode: agonist
# Method: PRESTO-Tango
# Concentration: 10 µM
# Relative to: untreated
target,fold over basal
"CYSLTR1 (Homo sapiens, UniProt Q9Y271)",1.03
"PTH2R (Homo sapiens, UniProt P49190)",1.13
"MC5R (Homo sapiens, UniProt P33032)",0.75
"PTGFR (Homo sapiens, UniProt P43088)",0.96
"TAAR1 (Homo sapiens, UniProt Q96RJ0)",1.08 fold
"Oxytocin receptor (OXTR, Homo sapiens, UniProt P30559)",0.66

# Set 4
# Cell line: HaCaT
# Concentration: 100 µM
# Time: 36 h
SMILES,viability
C#C[C@]1(O)CC[C@H]2[C@@H]3CCc4cc(O)ccc4[C@H]3CC[C@@]21C,12.3%
NNc1nnc(NN)c2ccccc12,72.7%
N[C@@H](Cc1c[nH]c2ccccc12)C(=O)O,91.3%
Cc1ccc(O)cc1,94.9%
CO[C@@]1(NC(=O)Cc2cccs2)C(=O)N2C(C(=O)O)=C(COC(N)=O)CS[C@@H]21,118%
NC(=O)CCCCC1CCSS1 (stereo not shown),108%

# Set 5
# Target: Tyrosine-protein kinase SYK (SYK, Homo sapiens, UniProt P43405)
# Read-out: enzyme activity
# Mode: inhibitor
# Concentration: 0.5 µM
# Relative to: control
SMILES,remaining activity
COc1cc2ncnc(Nc3ccc(Oc4ccccc4)cc3)c2cc1OC,98.6%
Cc1ccc(Nc2nccc(N(C)c3ccc4c(C)n(C)nc4c3)n2)cc1S(N)(=O)=O,101%
O=C(CCCc1ccc(-c2ccccc2F)cc1)Nc1ccc(O)cc1,101%
N#CC(C#N)=C(N)/C(C#N)=C/c1ccc(O)cc1,101%
COc1cc2nccc(Oc3ccc(NC(=S)NC(=O)c4ccccc4C)cc3)c2cc1OC,95.5%
COc1ccc(C(=O)Nc2sc3c(c2C(N)=O)CCCC3)cc1OC,91.2%
O=S(=O)(c1cccc2cnccc12)N1CCCNCC1,84.3%
Nc1ncnc2n[nH]c(Nc3ccc(F)cc3)c12,97.4%
O=C1NC(=O)C(c2cn(CCCO)c3ncccc23)=C1c1cnccn1,60%
COc1ccc(CNC(=O)Nc2ncc([N+](=O)[O-])s2)cc1,98.6%
COc1ccc(OC)c2c(=S)c3ccccc3[nH]c12,100%
NCCNc1ncc(C(N)=O)c(Nc2cccc(C(F)(F)F)c2)n1,15.6%
CCOC(=O)c1c(C)[nH]c(/C=C2\C(=O)Nc3ccccc32)c1C,89.3%
Cc1ccc(NC(=O)c2ccc(CN3CCN(C)CC3)cc2)cc1Nc1nc(-c2cccnc2)cs1,101%
O=c1c2ccccc2[nH]c(=S)n1CCN1CCC(=C(c2ccc(F)cc2)c2ccc(F)cc2)CC1,93.2%
Cc1nc(-c2ccccc2)c(-c2ccncc2)o1,99.1%

# Some of these lines once more (set 5):
SMILES,remaining activity
N#CC(C#N)=C(N)/C(C#N)=C/c1ccc(O)cc1,101%
COc1cc2nccc(Oc3ccc(NC(=S)NC(=O)c4ccccc4C)cc3)c2cc1OC,95.5%
COc1ccc(C(=O)Nc2sc3c(c2C(N)=O)CCCC3)cc1OC,91.2%
